Published values gathered from unrelated publications.
Compare with care: the assays were run in different laboratories. ± gives the spread as reported.

CC[C@H](C)[C@H](NC(=O)[C@@H](NC(=O)[C@H](CC(=O)O)NC(C)=O)[C@@H](C)O)C(=O)N[C@@H](CCCNC(=N)N)C(=O)N[C@@H](CC(C)C)C(=O)N[C@@H](CC(C)C)C(=O)N[C@@H](Cc1ccccc1)C(=O)N[C@@H](CCC(N)=O)C(=O)N[C@@H](CC(C)C)C(=O)N[C@@H](CCSC)C(=O)N[C@@H](CCCNC(=N)N)C(=O)N1CCC[C@H]1C(=O)N1CCC[C@H]1C(=O)N[C@@H](CC(N)=O)C(=O)N[C@@H](CCSC)C(=O)N[C@H](C(=O)N1CCC[C@H]1C(=O)N[C@@H](C)C(=O)N[C@H](C(=O)N[C@@H](CC(N)=O)C(=O)N[C@@H](C)C(N)=O)C(C)C)[C@@H](C)O
α4β7+ CCR9+ cells (refers to: HA-02 tetramer; antigen-experienced tetramer+ CD4 T cells, healthy adults, HLA-DRB1*0101; dose not given): 26.7%

Cc1ccc(/C=C/C(=O)O)cc1-c1cc2c(cc1C)C(C)(C)CCC2(C)C
log2 fold change (RNA sequencing, refers to: Sycp2; rat, brain; dose not given, 24 h; baseline: vehicle): 0.24

CC(C)C[C@@H]1NC(=O)[C@H](C(C)C)NC(=O)[C@H](CO)NC(=O)CNC(=O)CNC(=O)[C@H](CCCNC(=N)N)NC(=O)[C@@H]2CCCN2C(=O)[C@@H](NC(=O)CC[C@H](NC(=O)c2ccc(N(C)Cc3cnc4nc(N)nc(N)c4n3)cc2)C(=O)O)C(C)(C)SSC[C@@H](C(=O)O)NC(=O)CNC(=O)[C@H]([C@@H](C)O)NC(=O)[C@H](C(C)C)NC1=O
spleen weight (rat adjuvant arthritis; iv, 5 mg/kg once daily, day 14): 0.295 ± 0.017 g

C[C@]12CC[C@H](O)CC1CCC1C2[C@H](O)C(=O)[C@]2(C)[C@@H](c3ccc(=O)oc3)CC[C@]12O (some centres unmarked)
Vmax (sulfation, substrate; pig liver cytosol): 0.035 ± 0.001 nmol/min/mg

Cc1cc(O)cc(C)c1C[C@H](N)C(=O)N[C@H](C)C(=O)NCC(=O)N(C)[C@@H](Cc1ccccc1)C(=O)N1CCC[C@H]1C(=O)N[C@@H](CC(C)C)C(=O)N[C@@H](Cc1c[nH]c2ccccc12)C(=O)NCc1cc(C(F)(F)F)cc(C(F)(F)F)c1
selectivity ratio (agonist; guinea pig ileum, mouse vas deferens; baseline: MOR over DOR): 1.5

CC[C@H](C)[C@H](NC(=O)[C@H](CCCCN)NC(=O)CNC(=O)[C@H](CC(C)C)NC(=O)[C@@H](NC(=O)[C@H](C)NC(=O)[C@H](CCCCN)NC(=O)CNC(=O)[C@H](C)NC(=O)CNC(=O)[C@H](CCCCN)NC(=O)[C@H](CCSC)NC(=O)[C@H](CCCCN)NC(=O)[C@@H](NC(=O)[C@H](Cc1c[nH]c2ccccc12)NC(=O)[C@H](CC(C)C)NC(=O)[C@H](CCC(N)=O)NC(=O)[C@H](CCCCN)NC(=O)[C@H](CC(C)C)NC(=O)[C@@H](N)CC(C)C)[C@@H](C)O)C(C)C)C(=O)N[C@@H](CCCCN)C(=O)NCC(=O)N[C@@H](CC(C)C)C(=O)N[C@@H](CC(C)C)C(=O)O
calcein leakage (calcein release; PC-containing vesicles, 200 µM lipid; 15 µM, 1 h; baseline: Triton X-100): ~15%

CC(C)C[C@H](NC=O)C(=O)N[C@@H](C)C(=O)N[C@@H](C)C(=O)N[C@@H](CC(=O)O)C(=O)N[C@@H](CC(C)C)C(=O)N[C@@H](CC(C)C)C(=O)N[C@@H](C)C(=O)N[C@@H](C)C(=O)N[C@@H](CC(C)C)C(=O)NCC(=O)N[C@@H](CC(=O)O)C(=O)N[C@@H](CC(C)C)C(=O)N[C@@H](C)C(=O)N[C@@H](CCCCN)C(=O)N[C@@H](Cc1c[nH]c2ccccc12)C(=O)N[C@@H](CC(C)C)C(=O)N[C@@H](CC(C)C)C(=O)N[C@@H](CC(=O)O)C(=O)N[C@@H](C)C(=O)N[C@@H](CC(C)C)C(=O)N[C@@H](C)C(=O)N[C@@H](CCCCN)C(=O)N[C@@H](C)C(=O)N[C@@H](C)C(=O)N[C@@H](CCCCN)C(=O)N[C@@H](CCCCN)C(=O)O (racemic)
DPX over ANTS release ratio (POPC vesicles): 0.28

CC[C@H](C)[C@H](NC(=O)[C@H](Cc1c[nH]c2ccccc12)NC(=O)[C@H](CCCNC(=N)N)NC(=O)[C@H](CCCCN)NC(=O)[C@H](CC(C)C)NC(=O)[C@H](CC(=O)O)NC(=O)[C@H](Cc1ccccc1)NC(=O)[C@H](C)NC(=O)[C@H](Cc1ccc(O)cc1)NC(=O)[C@H](CC(N)=O)NC(=O)[C@H](Cc1ccc(O)cc1)NC(=O)[C@H](CCCNC(=N)N)NC(=O)[C@H](Cc1ccc(O)cc1)NC(=O)[C@H](Cc1ccc(O)cc1)NC(=O)[C@@H](NC(=O)[C@H](CC(C)C)NC(=O)[C@H](C)NC(=O)[C@H](CC(N)=O)NC(=O)[C@H](Cc1ccc(O)cc1)NC(C)=O)[C@@H](C)CC)C(=O)N[C@@H](Cc1ccc(O)cc1)C(=O)N[C@@H](CC(C)C)C(N)=O
α4β7− CCR9+ cells (refers to: HA-52 tetramer; antigen-experienced tetramer+ CD4 T cells, healthy adults, HLA-DRB1*0101; dose not given): 7.14%

COC[C@@H](NC(C)=O)C(=O)NCc1ccc(OCc2ccc(OC(F)(F)F)cc2)cc1
licking time (formalin test, phase II; mouse; ip, 8.0 mg/kg; baseline: vehicle): 55%

CC[C@H](C)[C@H](NC(=O)[C@H](CCCNC(=N)N)NC(=O)[C@H](CCC(N)=O)NC(=O)[C@H](CC(=O)O)NC(=O)[C@H](CC(C)C)NC(=O)[C@H](CC(C)C)NC(=O)[C@H](CC(N)=O)NC(=O)[C@H](Cc1ccccc1)NC(=O)[C@H](CC(=O)O)NC(=O)[C@@H](NC(=O)[C@@H](NC(=O)[C@H](CC(N)=O)NC(=O)CNC(=O)[C@H](CO)NC(C)=O)C(C)C)[C@@H](C)CC)C(=O)N[C@H](C(=O)N[C@@H](Cc1c[nH]c2ccccc12)C(=O)N[C@@H](CCC(N)=O)C(=O)N[C@@H](CC(N)=O)C(=O)N[C@@H](Cc1c[nH]c2ccccc12)C(=O)N[C@@H](Cc1ccc(O)cc1)C(=O)N[C@@H](C)C(N)=O)[C@@H](C)CC
α4β7− CCR9− cells (refers to: HA-19 tetramer; antigen-experienced tetramer+ CD4 T cells, healthy adults, HLA-DRB1*0101; dose not given): 61.5%

C[C@@H](O)[C@H](NC(=O)[C@@H]1CSSC[C@H](NC(=O)[C@@H](Cc2ccccc2)NC(=O)CN2CCN(CC(N)=O)CCN(CC(N)=O)CCN(CC(N)=O)CC2)C(=O)N[C@@H](Cc2ccc(O)cc2)C(=O)N[C@H](Cc2c[nH]c3ccccc23)C(=O)N[C@@H](CCCCN)C(=O)N[C@@H]([C@@H](C)O)C(=O)N1)C(=O)O [lead-212 labelled]
median survival (AR-42J tumour, mice; two x 5 µCi, three weeks apart): 7.1 weeks

Cc1cc(O)cc(C)c1CC(N)C(=O)NC1CCNc2c(Cc3ccccc3)cc(Cc3ccccc3)cc21 (centres unmarked)
antinociception (warm water tail withdrawal; male C57BL/6 mice; intraperitoneal, 10 mg/kg): inactive

COc1cc(C(Oc2ccc(C[C@H](N)C(=O)N[C@H](C)C(=O)NCC(=O)N(C)[C@@H](Cc3ccccc3)C(=O)NCCO)cc2)C(=O)O)c([N+](=O)[O-])cc1OC (some centres unmarked)
IPSC suppression fraction (inhibitory synaptic transmission, whole-cell voltage clamp; mouse hippocampal slices CA1; 1 µM, added: UV uncaging plus CTAP 1 µM): -0.05 ± 0.1

COc1ccc(-c2c(C#N)c(N)nc3c2CCc2nc4c(cc2-3)c(C)nn4-c2ccccc2)cc1
EC50 (DPPH scavenging, absorbance): > 100 µg/mL

Repeated from above:
Cc1ccc(/C=C/C(=O)O)cc1-c1cc2c(cc1C)C(C)(C)CCC2(C)C
log2 fold change (RNA sequencing, refers to: Sycp2; rat, brain; dose not given, 24 h; baseline: vehicle): 0.24
